Results gathered from unrelated publications.
Every numbered part comes from another study and shows a few of its results, in no order.
Chain of UniProt Q99558 (whole entry, looked up): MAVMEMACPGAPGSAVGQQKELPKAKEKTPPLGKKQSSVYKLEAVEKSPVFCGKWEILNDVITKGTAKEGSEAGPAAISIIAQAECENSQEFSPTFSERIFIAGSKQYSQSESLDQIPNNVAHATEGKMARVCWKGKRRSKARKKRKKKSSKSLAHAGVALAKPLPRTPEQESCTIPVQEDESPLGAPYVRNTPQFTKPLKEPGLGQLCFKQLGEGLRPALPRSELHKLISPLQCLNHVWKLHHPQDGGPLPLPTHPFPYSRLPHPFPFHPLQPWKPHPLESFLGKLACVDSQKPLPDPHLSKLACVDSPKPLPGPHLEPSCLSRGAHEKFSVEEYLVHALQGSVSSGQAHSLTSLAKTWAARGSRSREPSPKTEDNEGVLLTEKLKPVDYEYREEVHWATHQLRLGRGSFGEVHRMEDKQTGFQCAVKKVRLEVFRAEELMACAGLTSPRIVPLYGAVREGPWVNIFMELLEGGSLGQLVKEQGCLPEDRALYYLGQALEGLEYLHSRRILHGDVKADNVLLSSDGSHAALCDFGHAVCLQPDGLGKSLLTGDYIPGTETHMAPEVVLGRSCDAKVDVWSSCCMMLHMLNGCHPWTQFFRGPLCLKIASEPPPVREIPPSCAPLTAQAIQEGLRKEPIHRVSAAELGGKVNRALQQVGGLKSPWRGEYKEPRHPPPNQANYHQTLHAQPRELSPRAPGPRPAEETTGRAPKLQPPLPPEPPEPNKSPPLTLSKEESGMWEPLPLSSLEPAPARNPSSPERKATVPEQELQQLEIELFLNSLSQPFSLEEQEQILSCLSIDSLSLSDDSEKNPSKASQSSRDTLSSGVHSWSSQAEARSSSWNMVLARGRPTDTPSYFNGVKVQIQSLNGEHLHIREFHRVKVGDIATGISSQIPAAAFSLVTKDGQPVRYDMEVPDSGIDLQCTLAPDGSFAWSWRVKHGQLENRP
Chain of UniProt P78362 (whole entry, looked up): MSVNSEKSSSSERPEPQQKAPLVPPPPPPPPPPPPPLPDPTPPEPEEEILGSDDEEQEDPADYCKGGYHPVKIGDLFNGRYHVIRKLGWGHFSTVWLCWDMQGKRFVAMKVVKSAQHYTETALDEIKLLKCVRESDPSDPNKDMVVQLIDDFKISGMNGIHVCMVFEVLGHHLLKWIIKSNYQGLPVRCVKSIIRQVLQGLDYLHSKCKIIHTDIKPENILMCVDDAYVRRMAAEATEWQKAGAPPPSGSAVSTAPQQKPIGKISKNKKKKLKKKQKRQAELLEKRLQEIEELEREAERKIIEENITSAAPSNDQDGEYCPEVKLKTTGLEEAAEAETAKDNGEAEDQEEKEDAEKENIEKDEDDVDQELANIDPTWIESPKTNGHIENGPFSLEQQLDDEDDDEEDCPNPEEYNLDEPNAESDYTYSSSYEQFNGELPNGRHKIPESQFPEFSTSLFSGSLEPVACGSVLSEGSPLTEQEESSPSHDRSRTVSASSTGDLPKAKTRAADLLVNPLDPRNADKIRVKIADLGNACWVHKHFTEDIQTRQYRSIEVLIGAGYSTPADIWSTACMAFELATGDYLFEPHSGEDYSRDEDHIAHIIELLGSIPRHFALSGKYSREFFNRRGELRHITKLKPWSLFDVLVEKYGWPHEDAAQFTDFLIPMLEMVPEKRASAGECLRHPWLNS
Chain of UniProt P36507 (whole entry, looked up): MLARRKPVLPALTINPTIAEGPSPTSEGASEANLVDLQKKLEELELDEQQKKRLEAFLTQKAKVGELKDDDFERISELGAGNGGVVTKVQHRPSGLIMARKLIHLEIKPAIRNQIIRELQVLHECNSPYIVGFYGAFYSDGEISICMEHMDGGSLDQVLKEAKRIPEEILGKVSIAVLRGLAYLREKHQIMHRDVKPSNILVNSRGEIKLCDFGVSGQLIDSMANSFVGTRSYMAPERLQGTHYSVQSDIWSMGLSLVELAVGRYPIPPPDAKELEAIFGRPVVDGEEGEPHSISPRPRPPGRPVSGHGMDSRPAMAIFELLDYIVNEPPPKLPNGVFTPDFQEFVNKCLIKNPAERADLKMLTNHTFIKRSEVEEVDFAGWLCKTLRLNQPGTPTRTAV
Chain of UniProt O60331 (whole entry, looked up): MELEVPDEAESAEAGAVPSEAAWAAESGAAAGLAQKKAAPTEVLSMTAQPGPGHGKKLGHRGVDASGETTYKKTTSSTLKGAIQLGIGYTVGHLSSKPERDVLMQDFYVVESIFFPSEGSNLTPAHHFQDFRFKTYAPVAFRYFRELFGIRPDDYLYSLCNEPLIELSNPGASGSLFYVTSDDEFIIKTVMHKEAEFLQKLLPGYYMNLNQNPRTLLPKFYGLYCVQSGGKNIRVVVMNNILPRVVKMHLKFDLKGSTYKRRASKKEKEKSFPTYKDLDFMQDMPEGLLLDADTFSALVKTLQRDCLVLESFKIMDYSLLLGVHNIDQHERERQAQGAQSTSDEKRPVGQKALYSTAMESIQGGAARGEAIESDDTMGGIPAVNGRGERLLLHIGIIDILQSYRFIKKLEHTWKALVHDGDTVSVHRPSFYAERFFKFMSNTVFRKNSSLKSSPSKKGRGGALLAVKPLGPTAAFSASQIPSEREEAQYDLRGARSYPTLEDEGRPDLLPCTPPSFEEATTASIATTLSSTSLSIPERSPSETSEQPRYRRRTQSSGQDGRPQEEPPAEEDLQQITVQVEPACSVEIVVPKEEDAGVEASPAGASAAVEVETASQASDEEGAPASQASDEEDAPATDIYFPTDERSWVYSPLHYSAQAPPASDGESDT
Chain of UniProt Q13546 (whole entry, looked up): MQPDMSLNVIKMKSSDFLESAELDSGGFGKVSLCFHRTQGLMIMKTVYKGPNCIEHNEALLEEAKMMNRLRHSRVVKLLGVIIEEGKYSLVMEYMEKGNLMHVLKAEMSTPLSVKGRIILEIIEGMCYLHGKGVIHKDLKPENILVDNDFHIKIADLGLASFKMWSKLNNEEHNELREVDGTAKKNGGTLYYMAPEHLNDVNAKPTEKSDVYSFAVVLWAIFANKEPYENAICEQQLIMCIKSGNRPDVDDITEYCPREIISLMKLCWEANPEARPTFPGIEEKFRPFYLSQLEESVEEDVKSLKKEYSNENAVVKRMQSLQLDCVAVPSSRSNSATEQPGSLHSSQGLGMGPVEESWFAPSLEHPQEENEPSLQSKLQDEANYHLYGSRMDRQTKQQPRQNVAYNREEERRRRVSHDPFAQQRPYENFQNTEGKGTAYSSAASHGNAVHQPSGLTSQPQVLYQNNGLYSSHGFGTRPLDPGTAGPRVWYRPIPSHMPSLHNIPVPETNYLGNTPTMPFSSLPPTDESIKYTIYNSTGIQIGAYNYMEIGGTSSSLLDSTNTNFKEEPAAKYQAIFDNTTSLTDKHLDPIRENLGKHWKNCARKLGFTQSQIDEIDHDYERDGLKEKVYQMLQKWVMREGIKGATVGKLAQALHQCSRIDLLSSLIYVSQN
Chain of UniProt Q16512 (whole entry, looked up): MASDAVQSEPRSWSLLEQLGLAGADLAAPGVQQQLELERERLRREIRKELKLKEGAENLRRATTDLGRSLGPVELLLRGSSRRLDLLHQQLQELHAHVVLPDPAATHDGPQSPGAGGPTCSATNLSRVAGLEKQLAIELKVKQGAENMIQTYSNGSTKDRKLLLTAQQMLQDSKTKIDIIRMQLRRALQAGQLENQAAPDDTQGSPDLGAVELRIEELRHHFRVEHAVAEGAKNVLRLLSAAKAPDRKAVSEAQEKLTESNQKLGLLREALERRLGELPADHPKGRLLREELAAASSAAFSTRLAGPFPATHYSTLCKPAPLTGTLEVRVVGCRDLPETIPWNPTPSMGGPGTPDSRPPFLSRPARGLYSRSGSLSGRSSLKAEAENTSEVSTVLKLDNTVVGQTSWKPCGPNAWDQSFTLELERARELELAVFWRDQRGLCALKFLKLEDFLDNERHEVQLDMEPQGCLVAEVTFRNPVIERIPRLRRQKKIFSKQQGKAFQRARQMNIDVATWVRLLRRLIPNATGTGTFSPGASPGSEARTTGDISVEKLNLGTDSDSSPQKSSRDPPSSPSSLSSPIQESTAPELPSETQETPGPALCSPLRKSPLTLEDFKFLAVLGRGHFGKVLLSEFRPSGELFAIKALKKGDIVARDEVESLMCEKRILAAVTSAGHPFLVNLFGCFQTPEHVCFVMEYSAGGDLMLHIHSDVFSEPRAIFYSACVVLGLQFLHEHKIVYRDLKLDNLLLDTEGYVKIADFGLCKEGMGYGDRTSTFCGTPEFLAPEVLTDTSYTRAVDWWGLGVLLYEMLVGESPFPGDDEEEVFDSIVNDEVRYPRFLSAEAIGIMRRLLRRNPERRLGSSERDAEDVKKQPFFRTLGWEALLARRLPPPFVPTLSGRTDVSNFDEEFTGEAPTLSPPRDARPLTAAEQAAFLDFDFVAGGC

Study 1
Target: Calcium/calmodulin-dependent protein kinase type II subunit alpha (CAMK2A, Homo sapiens, UniProt Q9UQM7)
Chain of UniProt Q9UQM7 (whole entry, looked up): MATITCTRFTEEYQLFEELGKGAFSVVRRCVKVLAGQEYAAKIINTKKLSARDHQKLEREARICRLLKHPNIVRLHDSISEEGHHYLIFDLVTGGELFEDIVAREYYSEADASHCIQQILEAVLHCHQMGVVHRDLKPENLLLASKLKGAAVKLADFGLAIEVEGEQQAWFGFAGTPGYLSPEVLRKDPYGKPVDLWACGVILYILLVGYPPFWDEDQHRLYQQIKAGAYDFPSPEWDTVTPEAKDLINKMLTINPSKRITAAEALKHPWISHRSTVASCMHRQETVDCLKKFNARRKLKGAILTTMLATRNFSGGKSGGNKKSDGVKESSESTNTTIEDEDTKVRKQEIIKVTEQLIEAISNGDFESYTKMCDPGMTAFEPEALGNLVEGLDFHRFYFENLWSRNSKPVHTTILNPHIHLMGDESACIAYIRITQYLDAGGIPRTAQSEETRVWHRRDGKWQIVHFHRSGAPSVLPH
Effect on: enzyme activity
Action: inhibitor
Tested at: 10 µM
Measurement: inhibition
Compound = Cc1ccc(C(=O)Nc2ccc(S(=O)(=O)O)c3cc(S(=O)(=O)O)cc(S(=O)(=O)O)c23)cc1NC(=O)c1cccc(NC(=O)Nc2cccc(C(=O)Nc3cc(C(=O)Nc4ccc(S(=O)(=O)O)c5cc(S(=O)(=O)O)cc(S(=O)(=O)O)c45)ccc3C)c2)c1; result = -18%
Compound = O=C1c2cc(CO)cc(O)c2C(=O)c2c(O[C@@H]3O[C@H](CO)[C@@H](O)[C@H](O)[C@H]3O)cccc21; result = 7%
Compound = N[C@@H]1CN(c2c(F)cc3c(=O)c(C(=O)O)cn([C@@H]4C[C@@H]4F)c3c2Cl)CC12CC2; result = -4%
Compound = C[C@@H]1OC(O)[C@@H](O)[C@H](O)[C@@H]1O (single isomer, unassigned; (-)); result = -34%
Compound = COC(=O)/C=C/C(=O)OC; result = 12%

Study 2
Organism: Sarcocystis neurona
Effect on: parasite growth
Tested at: 10 µM
Time: 96 h
Setting: second screen
Baseline: untreated
Measurement: log2 fold change
Structure (SMILES) = CC(C)NCC(O)COc1cccc2[nH]ccc12 (stereo not shown); result = 0.4
Structure (SMILES) = Nc1nc(N)c2nc(-c3ccccc3)c(N)nc2n1; result = 0.89
Structure (SMILES) = CC1(C)S[C@@H]2[C@H](NC(=O)[C@H](N)c3ccccc3)C(=O)N2[C@H]1C(=O)O; result = 0.26
Structure (SMILES) = CN(C)CCc1c[nH]c2ccc(C[C@H]3COC(=O)N3)cc12; result = 0.3
Structure (SMILES) = CCOC(=O)C1=C(C)NC(C)=C(C(=O)OC)C1c1cccc([N+](=O)[O-])c1 (stereo not shown); result = 0.45
Structure (SMILES) = CC(C)(C(=O)O)c1ccc(C(O)CCCN2CCC(C(O)(c3ccccc3)c3ccccc3)CC2)cc1 (stereo not shown); result = 0.42
Structure (SMILES) = COc1ccc(OC)c(C(O)CNC(=O)CN)c1 (stereo not shown); result = 0.23
Structure (SMILES) = CCc1ccc(CCOc2ccc(CC3SC(=O)NC3=O)cc2)nc1 (stereo not shown); result = -0.15
Structure (SMILES) = C[C@]12C=CC(=O)C=C1CC[C@@H]1[C@@H]2C(=O)C[C@@]2(C)[C@H]1CC[C@]2(O)C(=O)CO; result = 0.23
Structure (SMILES) = Cc1ccc(Cl)c(Nc2ccccc2C(=O)O)c1Cl; result = 0.37

Study 3
Target: Diamine acetyltransferase 1 (Homo sapiens, UniProt P21673)
Action: inhibitor
Tested at: 10 µM
Baseline: control
Measurement: remaining activity
Target sequence (P21673 1-171): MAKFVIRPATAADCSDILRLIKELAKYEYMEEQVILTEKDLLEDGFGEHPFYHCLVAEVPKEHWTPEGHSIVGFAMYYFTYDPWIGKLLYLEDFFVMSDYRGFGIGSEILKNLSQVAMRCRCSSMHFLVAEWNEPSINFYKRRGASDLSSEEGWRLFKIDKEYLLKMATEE
Compound = C=C(C)[C@@H]1CC[C@]2(C(=O)O)CC[C@]3(C)[C@H](CC[C@@H]4[C@@]5(C)CC[C@H](O)[C@@](C)(CO)[C@@H]5CC[C@]43C)[C@@H]12; result = 88.2%
Compound = CC(C)=CCc1cc2c(cc1O)oc(=O)c1c3ccc(O)cc3oc21; result = 102%
Compound = COC(=O)c1ccc(O)c(OC)c1; result = 96.5%
Compound = C[C@@H]1CC[C@@]2(OC1)O[C@H]1C[C@H]3[C@@H]4CC=C5C[C@@H](O[C@@H]6O[C@H](CO)[C@@H](O[C@@H]7O[C@H](CO)[C@@H](O)[C@H](O)[C@H]7O)[C@H](O)[C@H]6O[C@@H]6O[C@@H](C)[C@H](O)[C@@H](O)[C@H]6O)CC[C@]5(C)[C@H]4CC[C@]3(C)[C@H]1[C@@H]2C; result = 96.3%
Compound = O=c1c(O)c(-c2ccc(O)cc2)oc2cc(O[C@@H]3O[C@H](CO)[C@@H](O)[C@H](O)[C@H]3O)cc(O)c12; result = 92.4%
Compound = O=C1c2c(O)cc(O)cc2O[C@H](c2ccc(O)c(O)c2)[C@H]1O; result = 93.8%
Compound = CC(=O)c1ccc(O)cc1O; result = 86.2%
Compound = COC(=O)C1=CO[C@@H](O[C@@H]2O[C@H](CO)[C@@H](O)[C@H](O)[C@H]2O)[C@H]2[C@@H]1C(=O)C[C@@H]2C; result = 85.5%
Compound = COc1ccc(/C=C/C(=O)c2ccc(OC)cc2)cc1; result = 84.4%

Study 4
Structure (SMILES): Cc1c(NC(=O)c2cc(C(N)=O)nc3cc(F)ccc23)c(C(F)(F)F)nn1Cc1ccc(C#N)cc1
Method: competition with immobilised ligand
Tested at: 1 µM
Measurement: remaining binding
target = Receptor-interacting serine/threonine-protein kinase 1 (RIPK1, Homo sapiens, UniProt Q13546); effect on = cell-free assay; result = 100%
target = Phosphatidylinositol 4-phosphate 5-kinase type-1 gamma (PIP5K1C, Homo sapiens, UniProt O60331); effect on = binding; result = 94%
target = Homeodomain-interacting protein kinase 1 (HIPK1, Homo sapiens, UniProt Q86Z02); effect on = cell-free assay; result = 73%
target = Dual specificity mitogen-activated protein kinase kinase 2 (MAP2K2, Homo sapiens, UniProt P36507); effect on = cell-free assay; result = 89%
target = Serine/threonine-protein kinase DCLK3 (DCLK3, Homo sapiens, UniProt Q9C098); effect on = cell-free assay; result = 92%
target = Calcium/calmodulin-dependent protein kinase type II subunit alpha (CAMK2A, Homo sapiens, UniProt Q9UQM7); effect on = cell-free assay; result = 100%
target = Mitogen-activated protein kinase kinase kinase 14 (MAP3K14, Homo sapiens, UniProt Q99558); effect on = cell-free assay; result = 72%
target = SRSF protein kinase 2 (SRPK2, Homo sapiens, UniProt P78362); effect on = cell-free assay; result = 100%
target = Dual specificity protein kinase CLK1 (CLK1, Homo sapiens, UniProt P49759); effect on = cell-free assay; result = 86%
target = Serine/threonine-protein kinase N1 (PKN1, Homo sapiens, UniProt Q16512); effect on = cell-free assay; result = 98%
target = Tyrosine-protein kinase ABL1, phosphorylated (ABL1, Homo sapiens, UniProt P00519, M351T); effect on = cell-free assay; result = 87%
target = Serine/threonine-protein kinase PLK2 (PLK2, Homo sapiens, UniProt Q9NYY3); effect on = cell-free assay; result = 78%
target = Dual specificity tyrosine-phosphorylation-regulated kinase 1A (DYRK1A, Homo sapiens, UniProt Q13627); effect on = cell-free assay; result = 84%

A few entries again (study 2):
Structure (SMILES) = C[C@]12C=CC(=O)C=C1CC[C@@H]1[C@@H]2C(=O)C[C@@]2(C)[C@H]1CC[C@]2(O)C(=O)CO; result = 0.23
Structure (SMILES) = CC1(C)S[C@@H]2[C@H](NC(=O)[C@H](N)c3ccccc3)C(=O)N2[C@H]1C(=O)O; result = 0.26
